Published values of several laboratories.
Parts stem from different laboratories: compare values within a part only.

Block 1
Target: Sal-like protein 4, full length isoform B (SALL4, Homo sapiens, UniProt Q9UJQ4-2, residues 1-616)
Method: universal PBM
Molecule type: double-stranded DNA, one strand shown
Sample: in vitro
Tested at: not given
Setting: 8-mer, flanks averaged, mean of replicates
Direction: higher = stronger binding
Residues (chain): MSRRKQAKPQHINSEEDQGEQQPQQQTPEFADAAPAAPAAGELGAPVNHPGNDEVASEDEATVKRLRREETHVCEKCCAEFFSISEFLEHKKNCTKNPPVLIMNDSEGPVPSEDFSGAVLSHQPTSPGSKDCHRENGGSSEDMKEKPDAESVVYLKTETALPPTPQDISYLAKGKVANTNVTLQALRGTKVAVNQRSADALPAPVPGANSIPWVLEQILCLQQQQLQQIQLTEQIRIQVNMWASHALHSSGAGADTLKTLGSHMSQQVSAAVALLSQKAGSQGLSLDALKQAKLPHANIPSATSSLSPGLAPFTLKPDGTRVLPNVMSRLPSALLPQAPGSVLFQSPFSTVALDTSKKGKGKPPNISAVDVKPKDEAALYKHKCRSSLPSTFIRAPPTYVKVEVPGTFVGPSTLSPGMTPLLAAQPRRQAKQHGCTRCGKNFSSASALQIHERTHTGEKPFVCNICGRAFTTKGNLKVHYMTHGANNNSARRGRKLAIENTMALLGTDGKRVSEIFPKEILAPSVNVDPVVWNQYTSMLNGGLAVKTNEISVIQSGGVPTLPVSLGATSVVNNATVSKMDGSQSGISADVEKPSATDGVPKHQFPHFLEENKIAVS
`ACAGTTAG` has an E-score of -0.0142.
For `CGCACTCC`, the E-score was -0.201.
`GGAACGAC` gave an E-score of -0.161.
`GCCTGTCA` gave an E-score of -0.156.
`CCCCCATC` gave an E-score of -0.166.
For `ATACAAGA`, the E-score was 0.241.
`ATGGCAGA` gave an E-score of -0.0808.
For `GCTAGAAC`, the E-score was -0.138.
For `AAGGCCCT`, the E-score was -0.0982.
`CACGATCG` has an E-score of -0.0499.
For `ACACGGGG`, the E-score was -0.321.
The E-score of `GGACTTAC` is reported as 0.00124.
The E-score of `ACTGAGAA` is reported as -0.178.
`AGAGAACT` gave an E-score of -0.0564.
With `CGCTCAGC` the E-score was -0.247.
`GGGAACAA` has an E-score of -0.0614.
`AGCGACGC` has an E-score of -0.224.

Block 2
Target: Interferon regulatory factor 3, full length, phosphomimetic (IRF3, Homo sapiens, UniProt Q14653, residues 1-427, S386D/S396D/S398D/S402D/T404D/S405D)
Method: protein-binding microarray
Molecule type: double-stranded DNA, one strand shown
Sample: in vitro
Tested at: 2540 nM top
Setting: 60-bp whole probe
Together with: salmon DNA 0.4 mg/ml
Reference: random background probes
Direction: higher = stronger binding
Shared flanks, not repeated: GCCTAGCAC … GTCTTGATTCGCTTGACGCTGCTG
Residues (chain): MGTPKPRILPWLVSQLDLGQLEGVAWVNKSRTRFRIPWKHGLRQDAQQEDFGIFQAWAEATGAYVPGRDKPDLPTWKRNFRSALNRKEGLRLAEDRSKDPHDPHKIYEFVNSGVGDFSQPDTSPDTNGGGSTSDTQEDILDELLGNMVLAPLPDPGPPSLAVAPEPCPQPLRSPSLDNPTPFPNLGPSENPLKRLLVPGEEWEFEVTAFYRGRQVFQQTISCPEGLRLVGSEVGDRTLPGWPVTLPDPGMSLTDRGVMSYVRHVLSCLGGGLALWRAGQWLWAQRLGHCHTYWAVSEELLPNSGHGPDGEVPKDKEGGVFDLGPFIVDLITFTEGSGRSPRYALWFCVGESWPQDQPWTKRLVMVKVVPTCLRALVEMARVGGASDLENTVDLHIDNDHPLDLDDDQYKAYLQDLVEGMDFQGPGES
Under “fitted relative affinity”, `TTGGAACTGAGACTGGATTAGTGCTAG` is recorded as -0.506 z-score.
Under “fitted relative affinity”, `GACTGACTGCTTCTCCTGACGTGCTAG` is recorded as -0.399 z-score.
Under “fitted relative affinity”, `AGAGTCACCCATCTCAGCAAGTGCTAG` is recorded as 1.5 z-score.
Under “fitted relative affinity”, `GACGATTCCATTTTCGAGACGTGCTAG` is recorded as 3.06 z-score.
Under “fitted relative affinity”, `TTTTCTCTGGTTCTTGCTTGGTGCTAG` is recorded as 1.8 z-score.
`GACGGTTTCGGTACTGGGGACGTGCTA`: “fitted relative affinity” 7.7 z-score.
Under “fitted relative affinity”, `TTAGAACTTAGTATCGATTAGTGCTAG` is recorded as 0.625 z-score.
For `CTACTTCTGTTTTTGCTTTCGTGCTAG`, “fitted relative affinity” read 2.17 z-score.
`TTAGGTCTCGGTATTGGTTAGTGCTAG`: “fitted relative affinity” 0.747 z-score.
`TTAGCTATCCTTATCCTTTAGTGCTAG`: “fitted relative affinity” 2.87 z-score.
`TTAGATCTCAGTCTCGATTGGTGCTAG`: “fitted relative affinity” 0.286 z-score.
`GGTGCTCTGCAGCTCAGGCAGTGCTAG`: “fitted relative affinity” -0.691 z-score.
For `TTGGGTATCGACTTTCGGTTAGTGCTA`, “fitted relative affinity” read 1.38 z-score.
`GACGGTATCGGGATTGGGGACGTGCTA`: “fitted relative affinity” 1.91 z-score.
Under “fitted relative affinity”, `TTAGTTCTCCTTATCCTTTAGTGCTAG` is recorded as 2.8 z-score.
Under “fitted relative affinity”, `TACGGTTTCGACACTGGGGACGTGCTA` is recorded as 2.8 z-score.
For `GACGAACTGGGACTGGAGACGTGCTAG`, “fitted relative affinity” read -0.362 z-score.
For `GACGATCTCAATTTCGAGACGTGCTAG`, “fitted relative affinity” read 1.36 z-score.
`TTAGGTTTGGGTTCCGGTTAGTGCTAG` — result for “fitted relative affinity”: 1.24 z-score.

Block 3
Target: Histone acetyltransferase KAT6A, winged helix 1, GST fusion (KAT6A, Homo sapiens, UniProt Q92794, residues 1-85)
Method: protein binding microarray
Molecule type: double-stranded DNA, one strand shown
Sample: in vitro
Tested at: not given
Setting: 8-mer, flanks averaged, mean of 2 arrays, mostly near background
Reference: not given
Direction: higher = stronger binding
Residues (chain): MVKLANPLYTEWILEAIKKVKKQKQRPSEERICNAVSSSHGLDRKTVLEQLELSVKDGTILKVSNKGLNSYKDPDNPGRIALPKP
For `CAGACTTC`, the E-score was -0.319.
For `TGGTGGAA`, the E-score was -0.323.
With `TGTGGGAA` the E-score was -0.24.
For `CTCTTACA`, the E-score was -0.197.
With `ACTTGTGA` the E-score was -0.223.
The E-score of `AAGCATCA` is reported as -0.17.
`CTAAAGGA` has an E-score of -0.0215.
For `CGGTGACC`, the E-score was 0.0645.
The E-score of `AGTATTAC` is reported as 0.022.
`TAAAGGCA` gave an E-score of -0.205.
The E-score of `ACAAGAGG` is reported as -0.0247.
`CGAAACCC` gave an E-score of 0.0826.
For `ACGGATTG`, the E-score was 0.216.
The E-score of `CATAATGG` is reported as -0.112.
`CCCTGGGA` gave an E-score of 0.00679.
The E-score of `CGCCACCA` is reported as 0.194.
For `AACTGGCG`, the E-score was 0.0496.
For `CGTTCAGC`, the E-score was 0.0075.
`AAGTAACA` has an E-score of -0.0935.
The E-score of `AGAAAGAC` is reported as -0.0966.
With `AACAAGTA` the E-score was -0.135.
`GCATACAC` gave an E-score of -0.106.
`AATCAAAA` has an E-score of -0.156.
With `GAGGGTCC` the E-score was -0.131.
For `AACTTCGG`, the E-score was -0.128.

Block 4
Target: RING finger protein unkempt homolog, zinc fingers 1-6, GST-SBP tag (UNK, Homo sapiens, UniProt Q9C0B0, residues 30-357)
Method: RNA Bind-n-Seq
Molecule type: RNA
Sample: in vitro
Tested at: not given
Setting: RNA with constant flanks, ends assumed
Reference: input RNA pool
Direction: higher = stronger binding
Target sequence (chain): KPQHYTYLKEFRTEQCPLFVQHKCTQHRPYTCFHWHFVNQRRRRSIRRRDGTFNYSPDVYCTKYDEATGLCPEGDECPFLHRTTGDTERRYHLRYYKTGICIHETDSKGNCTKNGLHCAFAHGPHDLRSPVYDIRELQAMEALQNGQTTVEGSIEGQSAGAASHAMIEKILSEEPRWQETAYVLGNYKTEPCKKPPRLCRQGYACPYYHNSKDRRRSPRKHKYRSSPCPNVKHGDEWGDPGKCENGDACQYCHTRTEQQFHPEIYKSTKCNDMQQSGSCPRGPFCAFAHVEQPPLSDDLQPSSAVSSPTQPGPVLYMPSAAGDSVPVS
For `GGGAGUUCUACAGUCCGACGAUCUAUGCAGGGGACGGUCCCGGCCCUGUUCGUCCAUUCUGUAAAUAACUUGUAAAUAGUCUUCCGCAUUCCUCUUGUAACAAGAUUAAUUUUUAUGAAAUAAAUUAUAUUUCCUAGUCUAAUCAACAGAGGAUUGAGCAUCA`, the bound/input enrichment was 1.33 ratio.
`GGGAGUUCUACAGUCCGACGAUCGAGACCUUUUCCAGUUAUAUCAGCGUUCAUAAUGAUAGCAAUCAAGUUGUAAAAGACAUAUCCGUAAAAGCUGAUCUUCAGACAAGUUCUCAGCGUUUAAAUCUUUCAGCCUCCAAUGCUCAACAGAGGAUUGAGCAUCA` has a bound/input enrichment of 0.37 ratio.
With `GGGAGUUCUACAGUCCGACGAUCCAUCGCAUGCCCAGGGGCCACUACCUGGCAUUAUCGCAUGCUGGGAUCAUUGGGGGAGGGCCGUUUGAAAUUCACCACUGUCCUUUGUUUUGGAGAUUCUUAUUUUUUAAUAAGUAAUCCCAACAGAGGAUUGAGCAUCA` the bound/input enrichment was 0.219 ratio.
`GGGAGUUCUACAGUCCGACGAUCCGCCGUGGUGGCCGUUAAACGGUCUCAGAGCGGAGCUAUCGGUUGUCUGCGGCCGCCGUGAGCUUUGCUUCGUUUCCUGAAGAUGGAGGGUCCUUUGUCCGUGUUCGGGGACCGCAGCACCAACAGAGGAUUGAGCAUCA` has a bound/input enrichment of 0.0798 ratio.
For `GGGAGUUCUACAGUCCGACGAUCGGACUGCAGAAUGGCUCAGACUUGCAGUUCAUCGAAAUGCAGAGAGAUGCCAAUAGACAAAUCCGCGAAUACAAAUUUAAGCUUUCAAAAGCAGAACAGGAUAUAACUACCUUGGAGCAACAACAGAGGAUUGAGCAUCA`, the bound/input enrichment was 0.154 ratio.
For `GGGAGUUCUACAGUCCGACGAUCCCUGGGCUUGCGCUGCUGUGCCAGCCGCAUCCAGGGCUCUCCCCGCUCUCCGCAGGCCUUUACCGAGGCGGCCAGGGCAUGGAGCCCCUUCCAGCAAGAGCCAUGGGCACUCCGGCUCACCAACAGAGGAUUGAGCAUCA`, the bound/input enrichment was 0.0873 ratio.
For `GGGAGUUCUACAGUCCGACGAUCGAGCCUUCUGAGGACAUUCCAAGACAGUAUACAGUCCUGUGGUCUCCUUGGAAAUCCGUCCCGUUAACAUUUCAAGGGCAAUACCGUGUUGGUUUUGACUGGAUAUUCAUAUAAACUUUUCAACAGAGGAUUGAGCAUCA`, the bound/input enrichment was 0.273 ratio.
For `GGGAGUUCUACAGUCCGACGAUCGGCAUGAAGGAUGACCGUCGGGACAGAUACUCUGCGGGCAAAAGGGGUGGAUUUAAUACCUUCCGAGACAGGGAAAAUUAUGACAGAGGUUACUCUAGCCUGCUUAAAAGAGAUUUUGGGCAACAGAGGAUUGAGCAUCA`, the bound/input enrichment was 0.465 ratio.

Excerpt of the above (block 2):
Under “fitted relative affinity”, `GACTGACTGCTTCTCCTGACGTGCTAG` is recorded as -0.399 z-score.
Under “fitted relative affinity”, `AGAGTCACCCATCTCAGCAAGTGCTAG` is recorded as 1.5 z-score.
Under “fitted relative affinity”, `GACGATTCCATTTTCGAGACGTGCTAG` is recorded as 3.06 z-score.
Under “fitted relative affinity”, `TTTTCTCTGGTTCTTGCTTGGTGCTAG` is recorded as 1.8 z-score.
`GACGGTTTCGGTACTGGGGACGTGCTA`: “fitted relative affinity” 7.7 z-score.
Under “fitted relative affinity”, `TTAGAACTTAGTATCGATTAGTGCTAG` is recorded as 0.625 z-score.
For `CTACTTCTGTTTTTGCTTTCGTGCTAG`, “fitted relative affinity” read 2.17 z-score.
`TTAGGTCTCGGTATTGGTTAGTGCTAG`: “fitted relative affinity” 0.747 z-score.
`TTAGCTATCCTTATCCTTTAGTGCTAG`: “fitted relative affinity” 2.87 z-score.
